Assay results from different studies.
Each numbered part is a random draw from the data of one study; scales do not carry over between parts.
Chain of UniProt O95747 (whole entry, looked up): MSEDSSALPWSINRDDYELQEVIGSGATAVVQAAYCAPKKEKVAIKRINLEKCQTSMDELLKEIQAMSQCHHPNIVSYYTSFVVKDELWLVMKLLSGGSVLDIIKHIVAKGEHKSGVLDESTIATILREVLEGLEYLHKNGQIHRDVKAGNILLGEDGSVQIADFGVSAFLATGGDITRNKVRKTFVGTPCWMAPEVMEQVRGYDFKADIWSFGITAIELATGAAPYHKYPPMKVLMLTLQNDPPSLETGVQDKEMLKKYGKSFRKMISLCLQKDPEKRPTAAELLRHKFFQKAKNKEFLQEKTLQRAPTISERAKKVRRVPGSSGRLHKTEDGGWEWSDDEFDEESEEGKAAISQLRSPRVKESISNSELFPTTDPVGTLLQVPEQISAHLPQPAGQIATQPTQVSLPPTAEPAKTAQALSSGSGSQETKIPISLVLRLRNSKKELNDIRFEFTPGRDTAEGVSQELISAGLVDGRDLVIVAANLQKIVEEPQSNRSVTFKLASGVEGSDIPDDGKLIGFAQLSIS
Chain of UniProt Q15418 (whole entry, looked up): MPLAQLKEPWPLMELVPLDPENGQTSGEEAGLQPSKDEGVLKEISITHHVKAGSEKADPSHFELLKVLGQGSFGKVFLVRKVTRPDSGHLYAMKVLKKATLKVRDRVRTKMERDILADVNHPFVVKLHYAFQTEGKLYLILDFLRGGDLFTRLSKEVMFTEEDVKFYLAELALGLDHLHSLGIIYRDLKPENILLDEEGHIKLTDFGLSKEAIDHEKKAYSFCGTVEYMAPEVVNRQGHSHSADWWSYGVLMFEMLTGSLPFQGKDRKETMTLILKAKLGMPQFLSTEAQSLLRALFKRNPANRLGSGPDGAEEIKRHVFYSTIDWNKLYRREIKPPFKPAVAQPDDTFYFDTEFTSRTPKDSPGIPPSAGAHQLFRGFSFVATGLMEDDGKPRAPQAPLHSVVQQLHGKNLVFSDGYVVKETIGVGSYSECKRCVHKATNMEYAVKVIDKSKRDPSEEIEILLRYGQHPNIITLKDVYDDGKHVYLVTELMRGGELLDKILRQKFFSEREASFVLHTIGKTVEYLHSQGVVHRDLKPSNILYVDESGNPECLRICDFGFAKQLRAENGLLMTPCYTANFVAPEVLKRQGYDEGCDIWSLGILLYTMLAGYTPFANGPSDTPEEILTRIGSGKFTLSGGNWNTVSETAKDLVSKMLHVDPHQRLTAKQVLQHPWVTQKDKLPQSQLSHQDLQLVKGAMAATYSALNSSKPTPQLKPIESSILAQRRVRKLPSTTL
Chain of UniProt P35626 (whole entry, looked up): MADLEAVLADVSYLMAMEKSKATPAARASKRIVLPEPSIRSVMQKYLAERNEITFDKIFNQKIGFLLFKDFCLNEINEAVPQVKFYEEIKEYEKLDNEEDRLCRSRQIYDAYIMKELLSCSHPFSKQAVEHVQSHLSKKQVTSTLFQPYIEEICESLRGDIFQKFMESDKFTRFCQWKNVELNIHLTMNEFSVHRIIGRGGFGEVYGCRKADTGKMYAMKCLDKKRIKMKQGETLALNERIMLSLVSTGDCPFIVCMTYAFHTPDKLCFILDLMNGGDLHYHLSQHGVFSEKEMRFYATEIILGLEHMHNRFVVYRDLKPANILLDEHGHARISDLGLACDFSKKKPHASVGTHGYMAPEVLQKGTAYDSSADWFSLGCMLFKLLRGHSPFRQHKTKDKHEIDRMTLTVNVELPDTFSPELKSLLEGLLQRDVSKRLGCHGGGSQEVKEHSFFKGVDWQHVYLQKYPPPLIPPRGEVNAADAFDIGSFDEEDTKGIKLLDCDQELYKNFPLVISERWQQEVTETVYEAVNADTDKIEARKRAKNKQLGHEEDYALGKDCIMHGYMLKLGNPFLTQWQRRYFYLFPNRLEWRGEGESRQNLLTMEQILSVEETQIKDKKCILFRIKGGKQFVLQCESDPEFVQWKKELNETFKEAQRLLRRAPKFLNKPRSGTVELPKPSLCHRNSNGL
Chain of UniProt O95819 (whole entry, looked up): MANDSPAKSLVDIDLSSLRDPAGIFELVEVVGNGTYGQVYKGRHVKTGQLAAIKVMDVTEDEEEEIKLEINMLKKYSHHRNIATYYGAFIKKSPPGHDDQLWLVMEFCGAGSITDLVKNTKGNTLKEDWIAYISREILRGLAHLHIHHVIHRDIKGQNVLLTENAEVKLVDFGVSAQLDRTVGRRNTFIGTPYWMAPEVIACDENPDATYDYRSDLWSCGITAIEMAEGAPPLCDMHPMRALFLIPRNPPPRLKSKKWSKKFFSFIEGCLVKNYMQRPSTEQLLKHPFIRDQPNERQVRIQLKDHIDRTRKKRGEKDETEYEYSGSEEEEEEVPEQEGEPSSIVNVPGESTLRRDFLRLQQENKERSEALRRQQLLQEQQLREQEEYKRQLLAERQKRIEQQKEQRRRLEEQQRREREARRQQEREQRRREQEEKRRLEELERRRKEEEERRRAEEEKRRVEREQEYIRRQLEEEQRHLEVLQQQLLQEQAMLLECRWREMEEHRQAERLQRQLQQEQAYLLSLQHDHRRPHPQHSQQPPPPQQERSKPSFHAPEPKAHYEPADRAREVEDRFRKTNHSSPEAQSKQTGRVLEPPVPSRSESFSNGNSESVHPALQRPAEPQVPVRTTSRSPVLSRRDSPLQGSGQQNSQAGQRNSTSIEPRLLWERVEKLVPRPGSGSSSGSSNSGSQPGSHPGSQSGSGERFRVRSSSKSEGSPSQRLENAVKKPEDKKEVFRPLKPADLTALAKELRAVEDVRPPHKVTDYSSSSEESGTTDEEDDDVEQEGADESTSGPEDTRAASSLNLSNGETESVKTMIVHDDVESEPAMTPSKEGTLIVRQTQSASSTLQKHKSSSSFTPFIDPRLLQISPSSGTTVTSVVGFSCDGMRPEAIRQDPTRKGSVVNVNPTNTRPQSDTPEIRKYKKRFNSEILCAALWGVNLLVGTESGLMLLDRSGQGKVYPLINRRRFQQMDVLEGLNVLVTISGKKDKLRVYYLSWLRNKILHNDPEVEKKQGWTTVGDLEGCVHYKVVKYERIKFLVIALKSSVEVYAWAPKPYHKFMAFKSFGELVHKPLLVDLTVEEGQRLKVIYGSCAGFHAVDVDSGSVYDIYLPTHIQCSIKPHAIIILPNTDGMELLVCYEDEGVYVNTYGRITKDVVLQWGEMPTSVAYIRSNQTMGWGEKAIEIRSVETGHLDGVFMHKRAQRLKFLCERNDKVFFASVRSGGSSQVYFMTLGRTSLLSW
Chain of UniProt Q02779 (whole entry, looked up): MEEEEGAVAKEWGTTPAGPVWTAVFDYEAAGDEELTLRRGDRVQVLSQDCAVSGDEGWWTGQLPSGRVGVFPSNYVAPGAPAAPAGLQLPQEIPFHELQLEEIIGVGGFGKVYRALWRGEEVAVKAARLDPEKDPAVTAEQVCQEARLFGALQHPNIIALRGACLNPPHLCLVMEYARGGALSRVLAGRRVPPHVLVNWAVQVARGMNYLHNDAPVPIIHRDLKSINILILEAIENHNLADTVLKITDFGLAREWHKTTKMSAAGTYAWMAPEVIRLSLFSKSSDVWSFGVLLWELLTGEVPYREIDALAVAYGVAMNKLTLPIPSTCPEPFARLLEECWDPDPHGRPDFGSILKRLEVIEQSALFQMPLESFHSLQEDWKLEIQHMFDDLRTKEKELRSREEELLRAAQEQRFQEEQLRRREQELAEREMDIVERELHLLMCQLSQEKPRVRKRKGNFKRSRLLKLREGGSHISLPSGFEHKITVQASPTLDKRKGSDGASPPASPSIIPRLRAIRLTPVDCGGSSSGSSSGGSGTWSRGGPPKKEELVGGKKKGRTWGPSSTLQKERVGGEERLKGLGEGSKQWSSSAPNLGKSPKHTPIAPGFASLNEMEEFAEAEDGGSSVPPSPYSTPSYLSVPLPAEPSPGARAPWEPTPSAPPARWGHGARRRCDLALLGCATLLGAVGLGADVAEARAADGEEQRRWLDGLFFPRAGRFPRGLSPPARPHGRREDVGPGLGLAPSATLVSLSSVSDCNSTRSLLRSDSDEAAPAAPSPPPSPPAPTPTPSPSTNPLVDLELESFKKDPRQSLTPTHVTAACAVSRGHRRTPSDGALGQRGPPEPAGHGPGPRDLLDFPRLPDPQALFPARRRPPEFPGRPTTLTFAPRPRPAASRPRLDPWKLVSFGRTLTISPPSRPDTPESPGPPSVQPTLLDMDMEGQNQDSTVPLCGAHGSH

Set 1 — species: mouse; sample: microsomes or S9; tested at: 2 µM; time: 0.5 h; endpoint: remaining compound
Compound = CN1C(=O)C(CC(=O)N2CCN(c3ccccn3)CC2)=C2CCCCC21 (stereo not drawn); value = 2.2%
Compound = CCOC(=O)c1cccc(NC(=O)N2Cc3c(sc4c3CCCC4)-n3cccc3C2c2cccc(Cl)c2)c1 (stereo not drawn); value = 37%
Compound = CC(C)S(=O)(=O)c1ccc(CC(=O)NCC(O)Cn2ccccc2=O)cc1 (stereo not drawn); value = 0.217%

Set 2 — cell line: mouse MPNST tumor cells; method: high-content nuclear imaging; item: cell number; tested at: 10 µM; time: 12 h; notes: mean of 2 replicates; relative to: plate mean; direction: higher = more cells; endpoint: nuclei count
SMILES = O=C(CNC(=O)c1cccc(C(F)(F)F)c1)N[C@@H]1CCN(Cc2ccc(Cl)cc2)C1; value = 5.85 z-score
SMILES = C=CCOC(Cn1ccnc1)c1ccc(Cl)cc1Cl (stereo not drawn); value = -0.246 z-score
SMILES = COc1cccc(-n2nc(C(=O)O)cc2-c2ccc(C3CCCCC3)c(Cl)c2)c1; value = 0.494 z-score

Set 3 — read-out: cell-free assay; method: competition with immobilised ligand; tested at: 1 µM; endpoint: remaining binding
Compound: CNC(=O)Nc1ccc2c(c1)CC[C@@]21OC(=O)N(CC(=O)N(Cc2ccc(F)cc2)[C@@H](C)C(F)(F)F)C1=O
target = Tyrosine-protein kinase ABL1, phosphorylated (ABL1, Homo sapiens, UniProt P00519, F317L); value = 77%
target = OXSR1 (Homo sapiens, UniProt O95747); value = 80%
target = NIM1K (Homo sapiens, UniProt Q8IY84); value = 71%
target = GRK3 (Homo sapiens, UniProt P35626); value = 100%
target = MAP3K10 (Homo sapiens, UniProt Q02779); value = 57%
target = SIK3 (Homo sapiens, UniProt Q9Y2K2); value = 94%
target = PIM3 (Homo sapiens, UniProt Q86V86); value = 97%
target = TAOK2 (Homo sapiens, UniProt Q9UL54); value = 91%
target = Ribosomal protein S6 kinase alpha-1, C-terminal kinase domain (RPS6KA1, Homo sapiens, UniProt Q15418); value = 88%
target = MAP2K3 (Homo sapiens, UniProt P46734); value = 71%
target = CDK8 (Homo sapiens, UniProt P49336); value = 100%
target = MINK1 (Homo sapiens, UniProt Q8N4C8); value = 95%
target = MARK3 (Homo sapiens, UniProt P27448); value = 100%
target = MAP4K4 (Homo sapiens, UniProt O95819); value = 87%
target = MAPK15 (Homo sapiens, UniProt Q8TD08); value = 74%

Set 4 — read-out: RNA clamping; method: fluorescence polarization; tested at: concentration not given; together with: FAM-labelled poly r(AG)8 RNA; endpoint: fluorescence polarization change
Target: Eukaryotic initiation factor 4A-III (Homo sapiens, UniProt P38919)
Chain of UniProt P38919 (whole entry, looked up): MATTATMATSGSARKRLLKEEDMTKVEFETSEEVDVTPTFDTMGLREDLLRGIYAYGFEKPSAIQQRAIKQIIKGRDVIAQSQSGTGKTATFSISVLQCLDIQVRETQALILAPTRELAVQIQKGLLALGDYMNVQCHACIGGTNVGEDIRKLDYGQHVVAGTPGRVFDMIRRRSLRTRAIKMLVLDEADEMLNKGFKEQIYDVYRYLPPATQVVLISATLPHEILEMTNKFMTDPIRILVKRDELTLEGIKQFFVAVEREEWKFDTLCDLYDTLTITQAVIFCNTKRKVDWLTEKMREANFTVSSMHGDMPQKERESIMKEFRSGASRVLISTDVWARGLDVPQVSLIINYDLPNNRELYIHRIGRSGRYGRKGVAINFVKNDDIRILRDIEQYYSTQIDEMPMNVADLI
Structure (SMILES) = COc1ccc([C@@]23Oc4cc(OC)cc(OC)c4[C@]2(O)[C@H](O)[C@H](C(=O)N(C)C)[C@H]3c2ccccc2)cc1; value = 23 mP
Structure (SMILES) = COc1cc(OC)c2c(c1)O[C@@]1(c3ccc(Br)cc3)[C@H](c3ccccc3)c3c(nc(-c4ccccc4)[nH]c3=O)[C@@]21O; value = 3.9 mP
Structure (SMILES) = COc1ccc([C@@]23Oc4cc(OC)cc(OC)c4[C@]2(O)c2nc(-c4ccccc4)n(CC(CC(=O)O)OC)c(=O)c2[C@H]3c2ccccc2)cc1 (stereo partly drawn); value = 3.4 mP
Structure (SMILES) = C=CCn1c(-c2ccccc2)nc2c(c1=O)[C@@H](c1ccccc1)[C@]1(c3ccc(OC)cc3)Oc3cc(OC)cc(OC)c3[C@]21O; value = 3.1 mP

Set 5 — action: agonist; endpoint: EC50
Target: Beta-1 adrenergic receptor (ADRB1, Homo sapiens, UniProt P08588)
Chain of UniProt P08588 (whole entry, looked up): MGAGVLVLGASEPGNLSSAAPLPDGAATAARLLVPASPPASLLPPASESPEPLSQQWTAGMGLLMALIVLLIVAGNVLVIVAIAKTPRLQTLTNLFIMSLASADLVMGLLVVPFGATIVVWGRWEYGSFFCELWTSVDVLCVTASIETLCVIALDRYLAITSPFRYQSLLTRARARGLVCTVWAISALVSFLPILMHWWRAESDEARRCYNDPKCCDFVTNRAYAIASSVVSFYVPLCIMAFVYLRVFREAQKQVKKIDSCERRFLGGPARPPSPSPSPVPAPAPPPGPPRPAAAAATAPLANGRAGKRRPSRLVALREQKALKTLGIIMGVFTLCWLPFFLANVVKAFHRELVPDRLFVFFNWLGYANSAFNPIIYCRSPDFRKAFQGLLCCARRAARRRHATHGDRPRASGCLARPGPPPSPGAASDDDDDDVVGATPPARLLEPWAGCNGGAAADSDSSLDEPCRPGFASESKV
Structure (SMILES) = CC(C)CN1C(=O)COC[C@@H]1[C@H](O)c1ccc(NC(=O)Cc2ccccc2)cc1; value = ≥ 100 µM
Structure (SMILES) = CC(CNCCc1ccc(O)c(O)c1)Cc1cccc(O)c1 (stereo not drawn); value = ≥ 100 µM
Structure (SMILES) = O=c1ccc2cc(O)c(O)cc2o1; value = ≥ 100 µM

Other studies, line by line
Structure (SMILES) = CO[C@@H]1[C@@H](OC(N)=O)[C@@H](O)[C@H](Oc2ccc3c(O)c(NC(=O)c4ccc(O)c(CC=C(C)C)c4)c(=O)oc3c2C)OC1(C)C; tested on = UWB1.289 PARPi-resistant clone; assay = CellTiter-Glo; conditions = 100 µM, 6 days; how to read = relative to: untreated; endpoint = viability; value = 69.4%
Structure (SMILES) = O=C(O)c1cc(/N=N/c2ccc(S(=O)(=O)Nc3ccccn3)cc2)ccc1O; tested on = Sarcocystis neurona; assay = parasite growth; conditions = 10 µM, 96 h, first screen; endpoint = inhibition; value = -3.5%

A few entries again (set 4):
Structure (SMILES) = COc1ccc([C@@]23Oc4cc(OC)cc(OC)c4[C@]2(O)[C@H](O)[C@H](C(=O)N(C)C)[C@H]3c2ccccc2)cc1; value = 23 mP
Structure (SMILES) = COc1cc(OC)c2c(c1)O[C@@]1(c3ccc(Br)cc3)[C@H](c3ccccc3)c3c(nc(-c4ccccc4)[nH]c3=O)[C@@]21O; value = 3.9 mP
Structure (SMILES) = COc1ccc([C@@]23Oc4cc(OC)cc(OC)c4[C@]2(O)c2nc(-c4ccccc4)n(CC(CC(=O)O)OC)c(=O)c2[C@H]3c2ccccc2)cc1 (stereo partly drawn); value = 3.4 mP
Structure (SMILES) = C=CCn1c(-c2ccccc2)nc2c(c1=O)[C@@H](c1ccccc1)[C@]1(c3ccc(OC)cc3)Oc3cc(OC)cc(OC)c3[C@]21O; value = 3.1 mP
